{"data": "Experimental data pooled from the literature", "MCA2": "Metacaspase-2 (MCA2, Trypanosoma brucei brucei, UniProt Q585F3)", "note": "± marks the error that the study gave.", "UniProt Q585F3, sequence (whole entry, looked up)": "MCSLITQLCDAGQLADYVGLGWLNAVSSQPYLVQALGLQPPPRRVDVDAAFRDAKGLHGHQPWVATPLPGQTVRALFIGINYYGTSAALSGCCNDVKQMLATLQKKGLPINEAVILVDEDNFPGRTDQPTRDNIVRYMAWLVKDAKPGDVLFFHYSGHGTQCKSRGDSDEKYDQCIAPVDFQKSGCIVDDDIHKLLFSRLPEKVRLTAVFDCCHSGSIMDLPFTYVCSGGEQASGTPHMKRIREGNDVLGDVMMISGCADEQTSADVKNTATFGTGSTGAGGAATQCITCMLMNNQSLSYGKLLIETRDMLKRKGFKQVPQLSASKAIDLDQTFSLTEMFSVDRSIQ", "UniProt Q2FDS6, sequence (whole entry, looked up)": "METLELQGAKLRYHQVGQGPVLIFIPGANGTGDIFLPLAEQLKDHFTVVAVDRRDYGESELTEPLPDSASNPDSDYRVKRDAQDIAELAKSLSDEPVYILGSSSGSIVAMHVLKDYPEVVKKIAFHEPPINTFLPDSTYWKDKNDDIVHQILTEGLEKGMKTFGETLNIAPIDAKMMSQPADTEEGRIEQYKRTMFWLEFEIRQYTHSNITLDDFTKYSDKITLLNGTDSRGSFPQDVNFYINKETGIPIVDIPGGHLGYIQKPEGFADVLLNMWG", "UniProt C7C422, sequence (whole entry, looked up)": "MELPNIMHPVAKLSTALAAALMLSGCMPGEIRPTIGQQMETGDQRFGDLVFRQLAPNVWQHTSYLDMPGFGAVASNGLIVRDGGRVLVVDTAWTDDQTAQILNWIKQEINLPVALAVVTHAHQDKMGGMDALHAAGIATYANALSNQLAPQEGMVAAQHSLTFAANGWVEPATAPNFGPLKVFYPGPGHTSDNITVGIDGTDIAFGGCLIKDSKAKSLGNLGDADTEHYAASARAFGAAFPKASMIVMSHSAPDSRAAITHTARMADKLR", "UniProt P41143, sequence (whole entry, unmodified, looked up)": "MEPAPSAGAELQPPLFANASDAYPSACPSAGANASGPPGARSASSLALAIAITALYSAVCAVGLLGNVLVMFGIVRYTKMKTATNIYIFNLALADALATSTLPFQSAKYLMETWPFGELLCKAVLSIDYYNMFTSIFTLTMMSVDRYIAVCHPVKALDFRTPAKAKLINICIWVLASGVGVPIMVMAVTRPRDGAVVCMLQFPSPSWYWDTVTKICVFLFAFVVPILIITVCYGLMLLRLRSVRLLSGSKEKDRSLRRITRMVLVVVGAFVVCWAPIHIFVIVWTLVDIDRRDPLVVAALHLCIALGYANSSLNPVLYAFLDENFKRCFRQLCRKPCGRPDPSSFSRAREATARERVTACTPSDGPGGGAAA", "UniProt P33535, sequence (whole entry, looked up)": "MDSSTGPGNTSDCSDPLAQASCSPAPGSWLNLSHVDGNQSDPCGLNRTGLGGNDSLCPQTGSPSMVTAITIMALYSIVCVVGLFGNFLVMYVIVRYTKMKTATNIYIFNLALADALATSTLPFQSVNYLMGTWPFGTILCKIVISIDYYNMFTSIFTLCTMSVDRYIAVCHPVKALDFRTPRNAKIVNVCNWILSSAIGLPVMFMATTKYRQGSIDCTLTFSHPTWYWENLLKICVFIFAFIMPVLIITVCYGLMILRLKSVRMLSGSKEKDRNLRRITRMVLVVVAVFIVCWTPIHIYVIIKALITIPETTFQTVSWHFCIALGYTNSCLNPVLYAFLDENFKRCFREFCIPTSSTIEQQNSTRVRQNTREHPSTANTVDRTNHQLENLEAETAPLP", "UniProt P28566, sequence (whole entry, looked up)": "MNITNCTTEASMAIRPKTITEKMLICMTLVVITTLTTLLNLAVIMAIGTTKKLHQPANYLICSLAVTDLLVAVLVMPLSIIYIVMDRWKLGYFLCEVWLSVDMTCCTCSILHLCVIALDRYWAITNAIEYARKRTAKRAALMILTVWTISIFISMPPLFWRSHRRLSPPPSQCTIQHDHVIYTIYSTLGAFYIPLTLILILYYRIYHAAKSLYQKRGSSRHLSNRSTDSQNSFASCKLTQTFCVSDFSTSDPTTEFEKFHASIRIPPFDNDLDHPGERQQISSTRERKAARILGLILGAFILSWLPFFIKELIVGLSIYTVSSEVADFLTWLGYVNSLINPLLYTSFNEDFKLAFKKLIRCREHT", "UniProt P48730, sequence (whole entry, looked up)": "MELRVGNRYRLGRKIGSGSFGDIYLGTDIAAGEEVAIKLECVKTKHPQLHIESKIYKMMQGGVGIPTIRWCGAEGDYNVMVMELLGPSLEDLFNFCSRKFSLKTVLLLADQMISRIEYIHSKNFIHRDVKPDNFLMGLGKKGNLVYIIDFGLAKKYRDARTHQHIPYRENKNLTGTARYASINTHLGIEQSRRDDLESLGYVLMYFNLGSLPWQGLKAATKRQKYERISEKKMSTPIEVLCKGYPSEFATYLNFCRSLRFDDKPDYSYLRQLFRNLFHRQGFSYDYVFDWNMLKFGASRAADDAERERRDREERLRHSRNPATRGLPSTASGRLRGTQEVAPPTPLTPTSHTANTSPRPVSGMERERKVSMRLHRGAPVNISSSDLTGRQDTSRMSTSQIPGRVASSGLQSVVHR", "UniProt Q5U3Y7, sequence (whole entry, looked up)": "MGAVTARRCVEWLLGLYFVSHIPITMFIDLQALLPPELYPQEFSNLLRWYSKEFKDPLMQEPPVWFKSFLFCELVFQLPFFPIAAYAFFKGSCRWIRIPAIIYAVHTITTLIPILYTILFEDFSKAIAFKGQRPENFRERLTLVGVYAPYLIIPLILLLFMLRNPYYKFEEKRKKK"}
{"Structure (SMILES)": "CC(C)(C)C(=O)OCOP(=O)(OCOC(=O)C(C)(C)C)C1CCCN(O)C1=O (stereo not drawn)", "tested on": "EKVX", "quantity": "log GI50", "value": "-6.18 log M"}
{"Structure (SMILES)": "CC[C@H](C)[C@@H]1NC(=O)[C@@H]2CCCN2C(=O)[C@@H](CS)NC(=O)[C@H](CC(C)C)NC(=O)[C@@H](CCCNC(=N)N)NC(=O)[C@@H](CCCNC(=N)N)NC(=O)[C@H](CCC(=O)O)NC(=O)[C@@H]2CCCN2C1=O", "tested on": "blaNDM-1 (Klebsiella pneumoniae, UniProt C7C422)", "assay": "enzyme activity, inhibitor", "conditions": "added: nitrocefin 1.5 µM", "quantity": "Ki", "value": "1010 nM"}
{"Structure (SMILES)": "O=C1NC2(CC2)COc2ncc(F)cc2[C@H]2COCCN2c2ccn3ncc1c3n2", "system": "Sprague-Dawley rat, female, heart", "conditions": "oral, 2.5 mg/kg/day, 4 weeks dosing, end of recovery", "quantity": "organ-to-brain weight ratio", "value": "54.5 ± 5.47%"}
{"Structure (SMILES)": "COc1ccccc1-c1n[nH]c2nc(NC3CCN(C(=O)Cc4ccc(F)cc4F)CC3)ncc12", "assay": "bead binding, competition bead pull-down, item: LMJF.04.1230", "system": "Leishmania donovani extract", "conditions": "10 µM", "how to read": "baseline: vehicle", "quantity": "relative abundance", "value": 1.02}
{"Structure (SMILES)": "CN1CCCN(C(=O)c2ccc(S(=O)(=O)F)cc2)c2ccccc21", "tested on": "Uncharacterized hydrolase SAUSA300_2518 (Staphylococcus aureus, UniProt Q2FDS6)", "assay": "enzyme activity, inhibitor", "quantity": "Ki", "value": "118000 nM"}
{"Structure (SMILES)": "C[C@H](NC(=O)[C@H](CCCCN)NC(=O)c1ccccc1N)C(=O)N[C@@H](CC(N)=O)C(=O)N[C@@H](CO)C(=O)N[C@@H](CO)C(=O)N[C@@H](C)C(=O)N[C@@H](CCC(N)=O)C(=O)NCCNc1ccc([N+](=O)[O-])cc1[N+](=O)[O-]", "tested on": "MCA2", "assay": "enzyme activity, competitive inhibitor", "system": "Trypanosoma brucei", "conditions": "added: Z-FR-AMC substrate", "quantity": "Ki", "value": "6700 nM"}
{"Structure (SMILES)": "CC(C)C[C@H](NC(=O)[C@H](CCCCN)NC(=O)[C@H](CCCCN)NC(=O)Cc1cccc(CNC(=O)CNC(=N)N)c1)B(O)O", "tested on": "Genome polyprotein, NS2B-NS3 protease (ZIKV, UniProt A0A024B7W1)", "assay": "inhibitor", "system": "Zika virus", "quantity": "Ki", "value": "11.4 ± 1.2 nM"}
{"Structure (SMILES)": "COc1ccccc1-c1n[nH]c2nc(N[C@H]3CC[C@H](NS(=O)(=O)CC(C)C)CC3)ncc12", "assay": "bead binding, competition bead pull-down, item: LINJ.09.0820", "system": "Leishmania donovani extract", "conditions": "10 µM", "how to read": "baseline: vehicle", "quantity": "relative abundance", "value": 1.21}
{"Structure (SMILES)": "CC(C)[C@H]1NC(=O)C[C@H]2/C=C/CCSSC[C@@H](NC1=O)C(=O)N[C@H](Cc1cccc3ccccc13)C(=O)NCC(=O)O2", "tested on": "CSNK1D (Homo sapiens, UniProt P48730)", "assay": "enzyme activity, inhibitor", "conditions": "10 µM", "quantity": "inhibition", "value": "3.6%"}
{"Structure (SMILES)": "CN1CCC(c2c[nH]c3ccc(O)cc23)CC1", "tested on": "HTR1E (Homo sapiens, UniProt P28566)", "assay": "binding", "quantity": "Ki", "value": "0.182 nM"}
{"Structure (SMILES)": "Cc1cc(O)cc(C)c1C[C@H](N)C(=O)N[C@H](CCCNC(=N)N)C(=O)N[C@@H](Cc1ccccc1)C(=O)N[C@@H](CCCCN)C(=O)NCCCCCCCCNC(=O)[C@H](Cc1ccccc1)NC(=O)[C@H](CC1CCCCC1)NC[C@@H]1Cc2ccccc2CN1C(=O)[C@@H](N)Cc1ccc(O)cc1", "tested on": "Oprm1 (Rattus norvegicus, UniProt P33535)", "assay": "ligand displacement, radioligand", "conditions": "cell membranes", "quantity": "Ki", "value": "28.7 nM"}
{"Structure (SMILES)": "C[C@H](NC(=O)[C@H](CCCCN)NC(=O)c1ccccc1N)C(=O)N[C@@H](Cc1c[nH]cn1)C(=O)N[C@@H](CO)C(=O)N[C@@H](CO)C(=O)N[C@@H](C)C(=O)N[C@@H](CCC(N)=O)C(=O)NCCNc1ccc([N+](=O)[O-])cc1[N+](=O)[O-]", "tested on": "MCA2", "assay": "enzyme activity, competitive inhibitor", "system": "Trypanosoma brucei", "conditions": "added: Z-FR-AMC substrate", "quantity": "Ki", "value": "5100 nM"}
{"Structure (SMILES)": "OC1Cc2ccccc2CC1N1CCC2(C=Cc3cc(Br)ccc32)CC1 (racemic)", "tested on": "Tmem97 (Rattus norvegicus, UniProt Q5U3Y7)", "assay": "binding, radioligand displacement", "system": "rat liver membranes", "conditions": "added: [3H]DTG, dextrallorphan 1 µM masking", "quantity": "Ki", "value": "490 ± 350 nM"}
{"Structure (SMILES)": "C[C@H](NC(=O)[C@H](CCCCN)NC(=O)c1ccccc1N)C(=O)N[C@H](C(=O)N[C@@H](CO)C(=O)N[C@@H](CO)C(=O)N[C@@H](C)C(=O)N[C@@H](CCC(N)=O)C(=O)NCCNc1ccc([N+](=O)[O-])cc1[N+](=O)[O-])[C@@H](C)O", "tested on": "MCA2", "assay": "enzyme activity, competitive inhibitor", "system": "Trypanosoma brucei", "conditions": "added: Z-FR-AMC substrate", "quantity": "Ki", "value": "9400 nM"}
{"Structure (SMILES)": "Cc1cc(O)cc(C)c1C[C@H](N)C(=O)N[C@H](CCCNC(=N)N)C(=O)N[C@@H](Cc1ccccc1)C(=O)N(C)CC(=O)N(C)Cc1cc(C(F)(F)F)cc(C(F)(F)F)c1", "tested on": "OPRD1 (Homo sapiens, UniProt P41143, K108D)", "quantity": "Ki", "value": "1.17 ± 0.68 nM"}
{"note": "Repeated from above:"}
{"Structure (SMILES)": "C[C@H](NC(=O)[C@H](CCCCN)NC(=O)c1ccccc1N)C(=O)N[C@@H](Cc1c[nH]cn1)C(=O)N[C@@H](CO)C(=O)N[C@@H](CO)C(=O)N[C@@H](C)C(=O)N[C@@H](CCC(N)=O)C(=O)NCCNc1ccc([N+](=O)[O-])cc1[N+](=O)[O-]", "tested on": "MCA2", "assay": "enzyme activity, competitive inhibitor", "system": "Trypanosoma brucei", "conditions": "added: Z-FR-AMC substrate", "quantity": "Ki", "value": "5100 nM"}
{"Structure (SMILES)": "CC(C)C[C@H](NC(=O)[C@H](CCCCN)NC(=O)[C@H](CCCCN)NC(=O)Cc1cccc(CNC(=O)CNC(=N)N)c1)B(O)O", "tested on": "Genome polyprotein, NS2B-NS3 protease (ZIKV, UniProt A0A024B7W1)", "assay": "inhibitor", "system": "Zika virus", "quantity": "Ki", "value": "11.4 ± 1.2 nM"}
